Results collected from several papers.
Numbered parts are unrelated; each lists some results of a single study.

Study 1
Target: Interferon regulatory factor 5, full length, phosphomimetic (IRF5, Homo sapiens, UniProt Q13568-2, residues 1-514, K96S/S451D/S453D/S456D/S462D)
Technique: protein-binding microarray
Form: double-stranded DNA, one strand shown
Sample: in vitro
Concentration: 250 nM
Notes: 60-bp whole probe
Together with: salmon DNA 0.4 mg/ml
Relative to: random background probes
Reading: higher = stronger binding
All sequences stand within: GCCTAGCAC … GTCTTGATTCGCTTGACGCTGCTG
Oligonucleotide | log fluorescence [z-score]
GACGATATCAGTATCGAGTCGTGCTAG | 3.86
GACGGTCTCGGTATCGTGACGTGCTAG | 0.375
GACGAACTGGGGTACCGAGACGTGCTA | -0.422
TTAGGTTTCGGTTCCGGTAAGTGCTAG | 10.6
TCATTTCCCAGAACTGGAACTGTGCTA | 0.413
TCAGCTTTTTAGATCGTACTGTGCTAG | 0.248
TCAACTTTCTGAATGCTACTGTGCTAG | 2.33
GGACAGTAATGGAGGTATAAGTGCTAG | -0.24

Study 2
Target: Microphthalmia-associated transcription factor, full length (MITF, Homo sapiens, UniProt O75030-10, residues 1-413)
Technique: protein-binding microarray
Form: double-stranded DNA, one strand shown
Sample: in vitro
Concentration: not given
Notes: k-mer, scored over probes, only values ≥0.25
Reading: higher = stronger binding
Target sequence (chain): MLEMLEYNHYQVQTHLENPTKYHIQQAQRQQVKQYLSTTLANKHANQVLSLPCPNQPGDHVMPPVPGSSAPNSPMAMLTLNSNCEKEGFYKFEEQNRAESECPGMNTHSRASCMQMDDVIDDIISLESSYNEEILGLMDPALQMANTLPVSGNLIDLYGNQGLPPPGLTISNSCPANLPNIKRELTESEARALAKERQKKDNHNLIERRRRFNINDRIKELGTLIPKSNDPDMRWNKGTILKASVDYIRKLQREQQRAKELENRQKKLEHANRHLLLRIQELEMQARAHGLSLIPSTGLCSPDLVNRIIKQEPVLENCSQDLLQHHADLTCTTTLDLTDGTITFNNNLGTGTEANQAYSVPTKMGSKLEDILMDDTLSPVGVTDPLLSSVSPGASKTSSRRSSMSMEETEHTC
Oligonucleotide | E-score
CCTACAC | 0.272
GATCACA | 0.366
AGGTCAC | 0.304
ATGACCA | 0.351

Study 3
Target: Histone acetyltransferase KAT6A, winged helix 2, GST fusion (KAT6A, Homo sapiens, UniProt Q92794, residues 85-181)
Technique: protein binding microarray
Form: double-stranded DNA, one strand shown
Sample: in vitro
Concentration: not given
Notes: 8-mer, flanks averaged, mean of 2 arrays, mostly near background
Relative to: not given
Reading: higher = stronger binding
Target sequence (chain): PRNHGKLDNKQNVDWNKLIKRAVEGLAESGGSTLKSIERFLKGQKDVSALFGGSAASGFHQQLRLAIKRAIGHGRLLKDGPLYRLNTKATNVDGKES
Oligonucleotide | E-score
AGGCGTGC | 0.0722
AGGTTCCA | -0.0976
AGATCAAT | 0.0188
AGTGTTTC | 0.0765
GGTGTTAA | -0.0184
AAGCGCGT | -0.0865
GGTGGCAC | 0.0785
CAGCAGGG | -0.0316

Single results of other studies
Molecule | target | test | system | conditions | how to read | endpoint | result
PhoQ, residues 284 288 289 292 302 303 SSYNSA | PhoP, residues 12 14 15 18 19 SMASL (Escherichia coli, UniProt P23836) | Sort-seq, item: YFP reporter | E. coli | PhoQ-PhoP variant library, together with: 10 µM Mg2+ | relative to: high Mg2+ state, higher = stronger signaling | fold induction | 2.14
